Experimental data gathered from unrelated publications.
A part holds a random share of what one study measured. Positions count from the first letter of the parent shown.

Set 1 — target: BATF3, bZIP domain (human); technique: DHFR protein complementation; medium: yeast; reference: wild-type JUN-FOS pair; reading: higher = stronger binding; quantity: binding fitness
Notes: single substitutions, most at no-binding floor
Starting sequence: JUN, bZIP domain (human); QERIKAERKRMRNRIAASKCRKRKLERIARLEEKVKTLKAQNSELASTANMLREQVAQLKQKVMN; partner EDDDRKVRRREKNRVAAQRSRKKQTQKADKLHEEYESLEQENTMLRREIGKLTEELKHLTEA
T48F: 0.0596 natural log
A40M: 0.117 natural log
Q41R: 0.201 natural log
S43T: 0.263 natural log
A40N: 0.194 natural log
T48H: 0.192 natural log
S47I: 0.186 natural log
A49G: -0.0343 natural log
L52E: -1.03 natural log
V35E: -0.313 natural log
N42L: -0.454 natural log
Q55N: 0.137 natural log
A29W: 0.0798 natural log
L31F: 0.188 natural log
K34E: 0.203 natural log
R53Q: 0.073 natural log
Q41L: 0.109 natural log
A57M: 0.157 natural log
A40I: 0.219 natural log
E32S: 0.18 natural log
A40E: 0.219 natural log
K34S: 0.27 natural log

Set 2 — technique: protein binding microarray; form: double-stranded DNA, one strand shown; medium: in vitro; tested at: not given; reference: not given; reading: higher = stronger binding; quantity: E-score
Target: Histone acetyltransferase KAT6A, both winged helices, GST fusion (KAT6A, Homo sapiens, UniProt Q92794, residues 1-181)
Notes: 8-mer, flanks averaged, mean of 2 arrays, mostly near background
Target sequence (chain): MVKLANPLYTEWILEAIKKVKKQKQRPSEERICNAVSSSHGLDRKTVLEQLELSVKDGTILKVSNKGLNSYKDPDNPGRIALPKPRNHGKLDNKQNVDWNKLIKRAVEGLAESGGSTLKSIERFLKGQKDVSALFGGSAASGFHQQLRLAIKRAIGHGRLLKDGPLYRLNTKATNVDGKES
GCGCATCA: 0.246
ATGATATA: -0.0567
ATAGTAAA: -0.104
ACAGTGGC: -0.0337
CACGTTCC: -0.0465
CCGGTTAC: 0.241
GACCCAGA: -0.134
GCAGTAGA: -0.114
AATGGTAG: -0.131
GACGGGAC: 0.24
TAGGGGAA: -0.275
AGTAAGAA: -0.0449
GAGAAAGA: -0.18
AGGCTCCG: 0.0525
CGTGGGAC: 0.1
ATCAGCCC: -0.0657
ATCTCTCA: -0.096
GATAACCA: -0.148
AGACATCC: -0.0692
CAACTTGC: -0.0231
TTATTAAA: 0.0276
GTCAGTTA: -0.101
CAGGGGCA: -0.223
ACCAAGCT: -0.297
TCATGACA: 0.101

Set 3 — target: CCNA1, cyclin fold, Cln2 fusion (human); technique: yeast growth competition, sequencing; medium: yeast; notes: weak parent motif; reference: not given; reading: higher = stronger binding; quantity: normalised enrichment score
Starting sequence: DOT1L docking peptide (human); SEAKRRIVFTITT; partner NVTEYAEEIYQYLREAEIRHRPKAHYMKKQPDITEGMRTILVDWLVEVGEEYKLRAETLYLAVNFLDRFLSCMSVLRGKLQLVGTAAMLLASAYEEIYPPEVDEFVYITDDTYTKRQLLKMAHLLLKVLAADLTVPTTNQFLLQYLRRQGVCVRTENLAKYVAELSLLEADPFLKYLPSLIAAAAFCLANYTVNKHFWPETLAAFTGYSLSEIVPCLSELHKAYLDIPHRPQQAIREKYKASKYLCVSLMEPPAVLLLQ
SEAARRIVFTITT [K4A]: -0.0913
SEAKRRIAFTITT [V8A]: 0.21
SEAKRRIVATITT [F9A]: 0.142
SEAKARIVFTITT [R5A]: -0.0699
SEAKRAIVFTITT [R6A]: -0.0683
SEAKRRAVFTITT [I7A]: -0.00297

Single results of other studies
PhoQ, residues 284 288 289 292 302 303 TLSLKA  fold induction (PhoP, residues 12 14 15 18 19 LQHIR (Escherichia coli, UniProt P23836); Sort-seq, measured: YFP reporter; E. coli; PhoQ-PhoP variant library, together with: 10 µM Mg2+; reference: high Mg2+ state, higher = stronger signaling): 2.69

Excerpt of the above (single results of other studies):
PhoQ, residues 284 288 289 292 302 303 TLSLKA  fold induction (PhoP, residues 12 14 15 18 19 LQHIR (Escherichia coli, UniProt P23836); Sort-seq, measured: YFP reporter; E. coli; PhoQ-PhoP variant library, together with: 10 µM Mg2+; reference: high Mg2+ state, higher = stronger signaling): 2.69
